Measured values pooled from the literature.
A part holds a random share of what one study measured. Values joined by “and” are separate records of one study, mostly repeats; a detail may differ. Substitutions count along the parent as printed.

Sample 1 — target: tungstate, free oxyanion; method: microfluidic competitive inhibition; matrix: in vitro, cell-free expressed; tested at: not given; direction: lower = stronger binding; quantity: oxyanion analog dissociation constant
Setting: derived from inhibition constants, unchanged parent 2230 nM
Starting sequence: PafA, mature enzyme, eGFP fusion (Elizabethkingia meningoseptica, UniProt Q9KJX5); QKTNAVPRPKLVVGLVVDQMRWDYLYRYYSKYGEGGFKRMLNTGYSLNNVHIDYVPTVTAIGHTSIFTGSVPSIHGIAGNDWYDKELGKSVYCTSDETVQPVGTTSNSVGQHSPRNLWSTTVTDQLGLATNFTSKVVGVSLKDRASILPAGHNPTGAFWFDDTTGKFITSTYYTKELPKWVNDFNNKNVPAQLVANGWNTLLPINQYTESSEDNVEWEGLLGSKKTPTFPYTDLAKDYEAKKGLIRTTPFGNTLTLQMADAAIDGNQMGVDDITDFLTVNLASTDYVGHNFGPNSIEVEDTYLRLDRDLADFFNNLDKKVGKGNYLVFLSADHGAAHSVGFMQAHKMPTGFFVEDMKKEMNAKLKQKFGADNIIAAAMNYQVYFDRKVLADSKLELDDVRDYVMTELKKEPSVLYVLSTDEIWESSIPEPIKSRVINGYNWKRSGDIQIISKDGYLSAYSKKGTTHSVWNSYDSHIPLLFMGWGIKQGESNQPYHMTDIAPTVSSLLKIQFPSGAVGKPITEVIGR
G350A: 2.29 µM
S330G: 2.06 µM
T465G: 1.47 µM
S70V: 1.89 µM
P428G: 1.07 µM
S210G: 1.88 µM
G222A: 1.59 µM
K518V: 2.25 µM

Sample 2 — Substance: meglumine antimoniate; organism: Leishmania infantum chagasi; method: qPCR; species: golden hamster chronic infection; route: intraperitoneal; dose: 50 mg/kg/day; time: 10 days; relative to: microglobulin; quantity: delta Ct
item: IL4 mRNA; spleen: 10.5 cycles and 11 cycles and 10.3 cycles and 12.6 cycles and 9.39 cycles and 10.6 cycles
item: IL4 mRNA; liver: 14 cycles and 15.6 cycles and 14.8 cycles and 15 cycles
item: IFN-γ mRNA; spleen: 10.2 cycles and 11.5 cycles and 11.7 cycles and 11.9 cycles and 13.4 cycles and 10.9 cycles
item: IL10 mRNA; liver: 11.7 cycles and 12.7 cycles and 11.5 cycles and 12.4 cycles and 11.9 cycles and 12.8 cycles
item: TGF-β mRNA; liver: 4.06 cycles and 4.14 cycles and 4.43 cycles and 5.68 cycles and 5.04 cycles and 4.15 cycles
item: IL17 mRNA; liver: 17.2 cycles and 16.4 cycles and 13.3 cycles and 14.7 cycles and 17 cycles and 15.5 cycles
item: IFN-γ mRNA; liver: 14 cycles and 12.9 cycles and 9.68 cycles and 12.4 cycles and 14.2 cycles and 11.1 cycles

Sample 3 — Sequence: AAAVRKPIVLKR; form: peptide; direction: direction not given; quantity: enrichment score
human cyclin A2; competitive growth deep sequencing; Saccharomyces cerevisiae, cyclin A2-Cln2 fusion strain; peptide tiling library: -0.0636
peptide binding; yeast competitive growth; together with: B1-Cln2 chimera: 0.0211
Saccharomyces cerevisiae; binding, yeast competitive growth sequencing; cyclin B3-Cln2 fusion strain; peptide tiling library: -0.0747
Saccharomyces cerevisiae; binding, competitive growth deep sequencing; cyclin E1-Cln2 fusion strain; peptide tiling library: -0.27
Saccharomyces cerevisiae; cell growth, competitive growth deep sequencing; peptide tiling library, together with: cyclin E2-Cln2 fusion: -0.288
Cln2 (Saccharomyces cerevisiae); peptide binding, competitive growth sequencing; Saccharomyces cerevisiae, unfused Cln2 strain; peptide tiling library: 0.171
Saccharomyces cerevisiae; cell growth, competitive growth deep sequencing; peptide tiling library, together with: cyclin F-Cln2 fusion: -0.355
Saccharomyces cerevisiae; mating pheromone growth arrest, pooled competitive growth deep sequencing; no Cln2 overexpression; peptide tiling library: -0.176

Single results of other studies
CNCC(O)c1ccc(O)c(O)c1 (racemic)
GFP signal (Vesicular stomatitis virus; pseudovirus infection; concentration not given, VSV-G control pseudotype): 108%

Some of these lines once more (sample 1):
G350A: 2.29 µM
S330G: 2.06 µM
